# Measurements from different studies.
# Protein sequences, listed by entry. Tags and fused reporters are not part of them. Lines headed by an entry give the natural chain unless they say otherwise; changes in a name come on top. Residues count along the entry.
# UniProt P29317, 24-976 limits assumed: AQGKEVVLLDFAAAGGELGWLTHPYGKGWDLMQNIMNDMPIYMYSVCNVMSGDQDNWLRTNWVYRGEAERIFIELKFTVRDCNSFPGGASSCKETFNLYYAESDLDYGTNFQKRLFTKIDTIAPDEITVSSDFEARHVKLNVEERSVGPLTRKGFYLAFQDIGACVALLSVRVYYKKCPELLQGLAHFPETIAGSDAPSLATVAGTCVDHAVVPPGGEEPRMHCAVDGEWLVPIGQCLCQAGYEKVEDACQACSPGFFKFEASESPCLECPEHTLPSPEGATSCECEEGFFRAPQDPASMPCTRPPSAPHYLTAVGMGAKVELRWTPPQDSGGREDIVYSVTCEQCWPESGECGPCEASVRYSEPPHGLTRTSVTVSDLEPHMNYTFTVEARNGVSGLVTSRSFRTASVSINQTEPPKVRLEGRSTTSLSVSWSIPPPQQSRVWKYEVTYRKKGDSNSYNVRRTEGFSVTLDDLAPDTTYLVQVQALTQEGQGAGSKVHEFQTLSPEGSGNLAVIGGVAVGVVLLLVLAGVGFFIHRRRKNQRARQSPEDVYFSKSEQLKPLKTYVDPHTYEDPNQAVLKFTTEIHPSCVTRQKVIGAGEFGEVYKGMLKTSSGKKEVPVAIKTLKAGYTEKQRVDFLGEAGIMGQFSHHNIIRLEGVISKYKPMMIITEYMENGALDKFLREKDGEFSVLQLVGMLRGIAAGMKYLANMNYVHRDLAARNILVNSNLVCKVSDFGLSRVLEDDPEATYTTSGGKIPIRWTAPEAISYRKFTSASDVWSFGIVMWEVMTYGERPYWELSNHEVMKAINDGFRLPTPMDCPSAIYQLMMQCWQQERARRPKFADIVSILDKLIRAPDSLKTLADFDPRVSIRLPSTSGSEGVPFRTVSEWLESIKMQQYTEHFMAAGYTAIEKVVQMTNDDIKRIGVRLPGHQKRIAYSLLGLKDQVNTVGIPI
# UniProt P29317, 596-900 limits assumed: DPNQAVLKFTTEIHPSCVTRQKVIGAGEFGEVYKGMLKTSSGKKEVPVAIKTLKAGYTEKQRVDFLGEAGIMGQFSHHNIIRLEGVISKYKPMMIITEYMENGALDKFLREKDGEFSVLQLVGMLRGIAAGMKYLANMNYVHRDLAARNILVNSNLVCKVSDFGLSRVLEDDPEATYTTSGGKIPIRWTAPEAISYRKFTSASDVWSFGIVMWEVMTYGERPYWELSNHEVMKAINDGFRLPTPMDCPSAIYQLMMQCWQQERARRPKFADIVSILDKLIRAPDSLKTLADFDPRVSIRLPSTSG
# UniProt O15151, 23-111 limits assumed: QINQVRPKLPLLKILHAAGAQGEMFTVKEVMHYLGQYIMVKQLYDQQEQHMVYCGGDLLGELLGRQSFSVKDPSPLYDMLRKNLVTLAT
# UniProt Q09472, whole entry, looked up: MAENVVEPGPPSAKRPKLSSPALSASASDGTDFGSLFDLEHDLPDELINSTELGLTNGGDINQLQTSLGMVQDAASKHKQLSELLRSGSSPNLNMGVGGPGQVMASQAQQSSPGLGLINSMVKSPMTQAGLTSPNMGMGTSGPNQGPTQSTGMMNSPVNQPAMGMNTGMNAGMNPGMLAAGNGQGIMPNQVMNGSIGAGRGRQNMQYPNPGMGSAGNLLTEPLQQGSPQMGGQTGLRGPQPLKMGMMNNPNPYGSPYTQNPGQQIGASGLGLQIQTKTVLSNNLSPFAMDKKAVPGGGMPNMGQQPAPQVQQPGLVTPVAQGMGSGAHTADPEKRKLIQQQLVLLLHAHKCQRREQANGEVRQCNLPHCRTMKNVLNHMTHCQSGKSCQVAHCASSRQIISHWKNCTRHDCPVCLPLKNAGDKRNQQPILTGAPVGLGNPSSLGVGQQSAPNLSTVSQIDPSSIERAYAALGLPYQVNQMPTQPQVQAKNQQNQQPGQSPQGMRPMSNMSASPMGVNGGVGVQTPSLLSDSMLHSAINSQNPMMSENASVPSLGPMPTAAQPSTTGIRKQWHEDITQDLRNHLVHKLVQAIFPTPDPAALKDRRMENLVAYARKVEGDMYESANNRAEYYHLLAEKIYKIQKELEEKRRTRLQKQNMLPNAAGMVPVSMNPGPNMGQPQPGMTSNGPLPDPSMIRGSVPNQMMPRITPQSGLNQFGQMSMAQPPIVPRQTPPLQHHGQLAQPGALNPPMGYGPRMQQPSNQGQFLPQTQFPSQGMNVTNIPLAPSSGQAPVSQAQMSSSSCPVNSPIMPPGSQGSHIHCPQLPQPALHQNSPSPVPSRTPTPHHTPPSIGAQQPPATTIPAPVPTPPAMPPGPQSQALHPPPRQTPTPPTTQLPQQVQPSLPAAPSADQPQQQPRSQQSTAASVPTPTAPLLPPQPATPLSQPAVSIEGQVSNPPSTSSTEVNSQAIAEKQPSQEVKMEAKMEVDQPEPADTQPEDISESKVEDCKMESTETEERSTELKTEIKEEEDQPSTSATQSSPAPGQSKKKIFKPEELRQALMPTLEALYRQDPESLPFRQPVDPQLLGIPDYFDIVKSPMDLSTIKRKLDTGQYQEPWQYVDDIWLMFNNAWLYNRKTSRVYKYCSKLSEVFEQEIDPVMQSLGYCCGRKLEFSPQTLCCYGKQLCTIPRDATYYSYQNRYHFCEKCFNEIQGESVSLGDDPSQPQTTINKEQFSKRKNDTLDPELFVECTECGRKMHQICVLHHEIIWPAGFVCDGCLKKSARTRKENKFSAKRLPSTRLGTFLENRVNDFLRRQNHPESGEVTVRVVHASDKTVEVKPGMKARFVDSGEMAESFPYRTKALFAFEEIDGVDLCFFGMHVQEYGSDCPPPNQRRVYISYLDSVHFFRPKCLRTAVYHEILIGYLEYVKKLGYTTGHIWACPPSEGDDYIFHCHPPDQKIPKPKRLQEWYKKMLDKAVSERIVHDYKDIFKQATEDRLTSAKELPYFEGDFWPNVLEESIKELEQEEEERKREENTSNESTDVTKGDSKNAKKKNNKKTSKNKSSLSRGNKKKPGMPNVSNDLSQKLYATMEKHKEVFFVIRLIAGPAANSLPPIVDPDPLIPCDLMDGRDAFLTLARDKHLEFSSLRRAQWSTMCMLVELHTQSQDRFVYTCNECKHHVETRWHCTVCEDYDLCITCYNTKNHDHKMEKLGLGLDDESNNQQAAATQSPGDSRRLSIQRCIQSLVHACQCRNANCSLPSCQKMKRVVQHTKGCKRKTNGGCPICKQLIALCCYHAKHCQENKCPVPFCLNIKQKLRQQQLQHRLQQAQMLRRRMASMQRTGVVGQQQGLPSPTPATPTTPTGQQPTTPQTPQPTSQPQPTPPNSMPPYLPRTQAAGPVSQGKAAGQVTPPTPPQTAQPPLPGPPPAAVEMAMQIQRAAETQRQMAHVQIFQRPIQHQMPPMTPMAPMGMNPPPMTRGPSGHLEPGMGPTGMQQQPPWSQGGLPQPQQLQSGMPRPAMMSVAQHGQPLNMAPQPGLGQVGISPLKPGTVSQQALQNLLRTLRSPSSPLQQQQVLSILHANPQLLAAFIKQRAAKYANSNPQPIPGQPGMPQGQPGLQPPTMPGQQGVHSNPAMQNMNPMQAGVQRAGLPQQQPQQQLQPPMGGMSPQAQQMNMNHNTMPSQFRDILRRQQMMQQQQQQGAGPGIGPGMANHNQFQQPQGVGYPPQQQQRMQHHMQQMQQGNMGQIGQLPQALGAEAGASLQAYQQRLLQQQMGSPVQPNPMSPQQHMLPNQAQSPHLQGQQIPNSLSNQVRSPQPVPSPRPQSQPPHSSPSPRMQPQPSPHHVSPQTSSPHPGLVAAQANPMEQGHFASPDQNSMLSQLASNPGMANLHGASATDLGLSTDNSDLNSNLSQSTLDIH
# UniProt Q09472, 1049-1156 limits assumed: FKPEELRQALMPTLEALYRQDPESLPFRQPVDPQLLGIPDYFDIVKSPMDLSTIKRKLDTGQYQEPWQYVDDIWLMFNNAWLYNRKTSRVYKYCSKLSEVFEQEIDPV
# UniProt P53779, 1-422 isoform 2: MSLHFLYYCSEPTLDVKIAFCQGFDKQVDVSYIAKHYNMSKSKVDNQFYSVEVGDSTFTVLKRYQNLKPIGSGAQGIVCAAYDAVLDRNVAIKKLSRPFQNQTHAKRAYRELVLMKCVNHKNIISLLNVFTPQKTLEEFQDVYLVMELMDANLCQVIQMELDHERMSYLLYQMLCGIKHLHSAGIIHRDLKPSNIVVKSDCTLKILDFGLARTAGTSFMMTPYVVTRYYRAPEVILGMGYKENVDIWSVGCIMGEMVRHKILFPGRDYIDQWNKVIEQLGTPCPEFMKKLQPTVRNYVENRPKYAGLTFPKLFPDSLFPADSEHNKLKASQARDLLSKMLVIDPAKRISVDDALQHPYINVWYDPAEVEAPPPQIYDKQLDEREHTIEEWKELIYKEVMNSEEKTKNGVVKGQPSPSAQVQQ
# UniProt Q9UGL1, 1-100 limits assumed: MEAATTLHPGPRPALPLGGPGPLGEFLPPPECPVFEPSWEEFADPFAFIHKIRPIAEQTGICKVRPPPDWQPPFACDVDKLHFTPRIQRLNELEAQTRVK
# UniProt Q9UGL1, 375-604 limits assumed: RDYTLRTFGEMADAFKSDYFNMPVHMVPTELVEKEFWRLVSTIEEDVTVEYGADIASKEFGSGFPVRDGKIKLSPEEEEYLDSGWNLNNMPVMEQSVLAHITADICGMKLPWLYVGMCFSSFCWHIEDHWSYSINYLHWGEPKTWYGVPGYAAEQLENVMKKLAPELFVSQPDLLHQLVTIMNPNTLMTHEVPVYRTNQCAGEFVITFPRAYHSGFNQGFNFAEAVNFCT
# UniProt Q9H7M9, whole entry, looked up: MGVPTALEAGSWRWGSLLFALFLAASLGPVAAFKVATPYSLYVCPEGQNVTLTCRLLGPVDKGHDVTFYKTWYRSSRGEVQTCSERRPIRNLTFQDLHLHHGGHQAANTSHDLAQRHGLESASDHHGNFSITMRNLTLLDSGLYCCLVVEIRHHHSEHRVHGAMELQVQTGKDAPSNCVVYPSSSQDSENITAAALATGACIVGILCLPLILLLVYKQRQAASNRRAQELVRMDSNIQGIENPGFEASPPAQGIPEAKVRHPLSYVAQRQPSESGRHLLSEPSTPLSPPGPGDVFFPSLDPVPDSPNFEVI
# UniProt Q8IUN9, whole entry, looked up: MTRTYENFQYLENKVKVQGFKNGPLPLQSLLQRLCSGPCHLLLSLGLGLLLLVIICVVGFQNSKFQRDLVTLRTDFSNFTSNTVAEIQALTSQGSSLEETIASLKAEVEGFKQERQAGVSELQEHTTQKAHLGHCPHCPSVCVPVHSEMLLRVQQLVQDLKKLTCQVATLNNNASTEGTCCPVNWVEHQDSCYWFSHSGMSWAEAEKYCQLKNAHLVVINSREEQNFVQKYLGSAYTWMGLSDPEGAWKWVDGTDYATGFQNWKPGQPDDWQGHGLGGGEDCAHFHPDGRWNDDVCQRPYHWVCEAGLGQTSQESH
# UniProt O14744, whole entry: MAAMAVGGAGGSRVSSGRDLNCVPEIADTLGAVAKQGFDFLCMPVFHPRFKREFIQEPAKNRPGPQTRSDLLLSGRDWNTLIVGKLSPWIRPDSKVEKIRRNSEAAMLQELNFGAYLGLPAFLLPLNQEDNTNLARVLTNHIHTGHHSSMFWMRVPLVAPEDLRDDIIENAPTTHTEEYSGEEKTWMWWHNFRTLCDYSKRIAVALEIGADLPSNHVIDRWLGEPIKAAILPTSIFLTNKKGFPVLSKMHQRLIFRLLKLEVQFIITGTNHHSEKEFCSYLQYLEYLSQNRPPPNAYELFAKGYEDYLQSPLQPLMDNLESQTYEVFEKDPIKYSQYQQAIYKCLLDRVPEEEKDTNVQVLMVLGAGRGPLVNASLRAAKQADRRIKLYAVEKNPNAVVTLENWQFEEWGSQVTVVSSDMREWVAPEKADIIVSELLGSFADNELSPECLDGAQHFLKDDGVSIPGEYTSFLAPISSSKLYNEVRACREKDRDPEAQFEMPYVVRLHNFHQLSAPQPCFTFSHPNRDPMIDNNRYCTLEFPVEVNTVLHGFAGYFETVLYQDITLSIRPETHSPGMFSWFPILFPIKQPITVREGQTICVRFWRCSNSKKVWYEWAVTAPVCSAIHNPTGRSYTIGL
# UniProt P49336, whole entry: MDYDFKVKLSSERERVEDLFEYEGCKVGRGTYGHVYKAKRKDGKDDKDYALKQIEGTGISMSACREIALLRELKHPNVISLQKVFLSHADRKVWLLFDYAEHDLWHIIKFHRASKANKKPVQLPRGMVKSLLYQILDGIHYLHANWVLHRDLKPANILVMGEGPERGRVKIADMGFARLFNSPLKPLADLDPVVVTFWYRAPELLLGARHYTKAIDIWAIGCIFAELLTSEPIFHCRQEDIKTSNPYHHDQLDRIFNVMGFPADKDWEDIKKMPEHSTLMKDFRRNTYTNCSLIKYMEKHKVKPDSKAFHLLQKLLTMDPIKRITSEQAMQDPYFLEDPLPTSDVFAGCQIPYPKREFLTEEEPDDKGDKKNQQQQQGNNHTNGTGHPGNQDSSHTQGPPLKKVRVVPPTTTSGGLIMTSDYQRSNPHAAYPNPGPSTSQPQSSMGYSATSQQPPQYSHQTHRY
# UniProt Q05097, whole entry, looked up: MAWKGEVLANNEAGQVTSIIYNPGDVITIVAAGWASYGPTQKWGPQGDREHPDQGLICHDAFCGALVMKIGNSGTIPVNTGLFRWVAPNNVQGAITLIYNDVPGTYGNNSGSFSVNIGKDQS
# UniProt Q9UBZ9, 1158-1251 limits assumed: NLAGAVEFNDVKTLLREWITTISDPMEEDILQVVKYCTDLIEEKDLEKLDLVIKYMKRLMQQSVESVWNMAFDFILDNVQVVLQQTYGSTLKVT
# Several values in a cell are separate wells, animals, samples, runs or records. ± gives the spread as reported.
# EPHA2: Ephrin type-A receptor 2 (EPHA2, Homo sapiens, UniProt P29317)
# RPA1 N-terminal domain: Replication protein A 70 kDa DNA-binding subunit, N-terminal domain (RPA1, Homo sapiens, UniProt P27694)
# CD28: CD28 (Homo sapiens, UniProt P10747)
# Tumor necrosis factor receptor superfamily member 9: Tumor necrosis factor receptor superfamily member 9 (Homo sapiens, UniProt Q07011)
# Hepatitis A virus cellular receptor 2: Hepatitis A virus cellular receptor 2 (Homo sapiens, UniProt Q8TDQ0)
# BTLA: B- and T-lymphocyte attenuator (BTLA, Homo sapiens, UniProt Q7Z6A9)
SMILES,target,test,test system,conditions,endpoint,value
Cc1ccc(C(=O)Nc2cccc(Cl)c2)cc1Nc1nc(-c2cccnc2)nc2c1cnn2C,EPHA2,Kinobeads competition pulldown,mixed cancer cell lysate,,Kd,0.129 µM
Cc1cccc(NS(=O)(=O)c2cc(C(=O)Nc3ccccc3C(=O)O)ccc2C)c1,RPA1 N-terminal domain,"binding, fluorescence polarisation competition",,added: FITC-ATRIP probe,Kd,165 ± 34 µM
O=C(NCc1nc(-c2ccncc2)no1)c1cc2c(cn1)OCCC2,CD28,microscale thermophoresis,,2% DMSO,Kd,24.3 ± 11.8 µM
O[C@@H]1[C@H](O)[C@@H]2C[C@@H]2[C@H]1n1cnc2c(NCc3cccc([125I])c3)nc(Cl)nc21,"Adenosine receptor A3 (Oryctolagus cuniculus, UniProt O02667)","binding, saturation binding",HEK293 cell membranes,"2 h, room temperature",Kd,0.00253 ± 0.00011 µM
Cc1ccc(C(=O)Nc2ccccc2C(=O)O)cc1S(=O)(=O)NCc1ccccc1,RPA1 N-terminal domain,"binding, fluorescence polarisation competition",,added: FITC-ATRIP probe,Kd,> 250 µM
O=C(NCc1nnc2n1CCN(Cc1cc3ccccc3[nH]1)CC2)C1CCOC1 (centres unmarked),Tumor necrosis factor receptor superfamily member 9,"binding, microscale thermophoresis",,,Kd,0.69 µM
Cc1ccc(C(=O)Nc2ccccc2C(=O)O)cc1S(=O)(=O)Nc1ccc(Cl)cc1,RPA1 N-terminal domain,"binding, fluorescence polarisation competition",,added: FITC-ATRIP probe,Kd,44 µM
COc1ccnc(C(=O)Nc2cccc(-c3nc(C)cc(=O)[nH]3)c2)c1,"Cystathionine gamma-synthase 1, chloroplastic (CGS1, Arabidopsis thaliana, UniProt P55217)","binding, microscale thermophoresis",,,Kd,6.7 µM
Nc1ncnc2c1c(-c1ccc(C(=O)Nc3cc(OC(F)(F)F)ccn3)cc1)nn2[C@@H]1CCCN(C(=O)C2CC2)C1,"Tyrosine-protein kinase BTK, non-phosphorylated (BTK, Homo sapiens, UniProt Q06187)",TR-FRET binding kinetics,,"37 °C, unphosphorylated enzyme",Kd,0.001 ± 7e-05 µM
CCOc1ccccc1Nc1nnc(SCC(=O)Nc2cc(F)ccc2F)s1,CD28,"binding, microscale thermophoresis",,,Kd,6.5 ± 2.8 µM
NS(=O)(=O)c1ccc(Cc2c(-c3cccc(-c4ccccc4)c3)nn(-c3nc(C(=O)O)cs3)c2C2CC2)c(F)c1,"LDHA (Homo sapiens, UniProt P00338)","binding, SPR",,added: NADH,Kd,0.00079 µM
CC(C)Oc1cc(C#N)ccc1C1=N[C@@H](c2cccc(Cl)c2)[C@@H](c2ccc(Cl)cc2)N1C(=O)N1CCNC(=O)C1,"Protein Mdm4 (MDM4, Homo sapiens, UniProt O15151)",,,"pH 6.5, 298 K, global fit common resonances",Kd,0.6 ± 0.5 µM
"Cc1noc(C)c1-c1ccc2nc(-c3cnn(CC(C)(C)O)c3)nc(N3CCOC[C@@H]3c3ccccc3)c2c1 (single isomer, unassigned)","EP300 (Homo sapiens, UniProt Q09472)",BROMOscan competition binding,,,Kd,0.19 µM
Nc1nc2c(ncn2COCCNC(=O)CCCCNC(=O)c2cc3cc(Br)ccc3c(Br)c2O)c(=O)[nH]1,"Deoxynucleoside triphosphate triphosphohydrolase SAMHD1, A1 site (SAMHD1, Homo sapiens, UniProt Q9Y3Z3)","binding at allosteric site A1, fluorescence anisotropy competition",,1 µM protein,Kd,5 ± 2 µM
O=C(CCCCCCC(=O)Nc1ccc(-c2c3ccc(=O)cc-3oc3cc(O)ccc23)c(C(=O)O)c1)NO,"HDAC6 (Homo sapiens, UniProt Q9UBN7)","binding, fluorescence anisotropy",,high affinity site,Kd,0.2 ± 0.1 µM
COC(=O)[C@@]1(C)C=C(C(=O)Nc2cccc(C(=O)NC34CC(Nc5nccc(-c6cccnc6)n5)(C3)C4)c2)C(=O)CC1,"MAPK10 (Homo sapiens, UniProt P53779)","enzyme activity, inhibitor",,4.938 µM,remaining activity,0.0864 fraction of control
Cc1ccc(C(=O)Nc2cc(C(F)(F)F)cc(C(F)(F)F)c2)cc1Nc1nc(-c2cccnc2)nc2c1cnn2C,EPHA2,"binding, microscale thermophoresis",kinase domain,"25 °C, 5% DMSO",Kd,0.284 µM
O=C(O)c1ccncc1Nc1nn(CCN2CCC(F)(F)CC2)c2ccc(F)cc12,"KDM5B (Homo sapiens, UniProt Q9UGL1)","binding, isothermal titration calorimetry",,,Kd,0.025 to 0.05 µM
CN1CCN(c2ccc(-c3cccc(CN4CCN(CCNC(=O)CCCCCCCNc5cccc6c5C(=O)N(C5CCC(=O)NC5=O)C6=O)CC4)c3)cc2NC(=O)c2c[nH]c(=O)cc2C(F)(F)F)CC1 (centres unmarked),"WDR5 (Homo sapiens, UniProt P61964)","binding, isothermal titration calorimetry",,25 °C,Kd,0.125 ± 0.008 µM
CC(=NNC(=O)CC12CC3CC(CC(C3)C1)C2)c1cc2c(cc1NC(=O)CCCC(=O)O)OCO2,Hepatitis A virus cellular receptor 2,microscale thermophoresis,,,Kd,1.42 µM
N[C@@H](CCSC[C@H]1O[C@@H](n2cnc3c(NCCCCNC(=O)CC(NC(=O)c4ccc(C5(C(F)(F)F)N=N5)cc4)C(=O)NCCCOCCOCCOCCCNC(=S)Nc4ccc5c(c4)C(=O)OC54c5ccc(O)cc5Oc5cc(O)ccc54)ncnc32)[C@H](O)[C@@H]1O)C(=O)O (some centres unmarked),"AHCY (Homo sapiens, UniProt P23526)","binding, fluorescence anisotropy",,,Kd,6 ± 2.9 µM
Cc1ccc(C(=O)Nc2cc(Cl)ccc2C(=O)O)cc1S(=O)(=O)Nc1cccc(Cl)c1,RPA1 N-terminal domain,"binding, fluorescence polarisation competition",,added: FITC-ATRIP probe,Kd,8 ± 0.45 µM
COc1ccc2c(c1OC)C(=O)OC2c1c(O)n[nH]c1-c1ccccc1 (centres unmarked),"VSIR (Homo sapiens, UniProt Q9H7M9)",microscale thermophoresis,,,Kd,3.25 µM
Cc1cccc(C2NC(=O)c3c(Cl)cccc3N2)c1 (racemic),"SMARCA4 (Homo sapiens, UniProt P51532, L1494Y)",ITC,,mutant,Kd,12 ± 1 µM
C/C=C/Cn1c(Cc2cc(OC)c(OC)c(OC)c2)nc2c(N)ncnc21,"Heat shock protein HSP 90-alpha, N-terminal domain (HSP90AA1, Homo sapiens, UniProt P07900)",isothermal titration calorimetry,,"298 K, N-terminal domain",Kd,2 ± 0.14 µM
Cc1ccc(C(=O)Nc2ccccc2C(=O)O)cc1S(=O)(=O)NC1CCCCC1,RPA1 N-terminal domain,"binding, fluorescence polarisation competition",,added: FITC-ATRIP probe,Kd,193 µM
COC1C=COC2(C)Oc3c(C)c(O)c4c(O)c(cc(OCC(=O)O)c4c3C2=O)NC(=O)C(C)=CC=CC(C)C(O)C(C)C(O)C(C)C(OC(C)=O)C1C (centres unmarked),"rpoB (Escherichia coli K-12, UniProt P0A8V2)","binding, competition pulldown MS",Escherichia coli lysate,,Kd,0.09 µM
COc1cc(/C=C/c2ccc3cc(OCC[18F])ccc3n2)ccn1,"Alpha-synuclein, fibrils (SNCA, Homo sapiens, UniProt P37840)","fibril binding, homologous radioligand competition",,"1 h, 37 °C",Kd,0.079 µM
Cc1ccc(C(=O)Nc2ccc(Br)cc2C(=O)O)cc1S(=O)(=O)Nc1ccc(Br)cc1,RPA1 N-terminal domain,"binding, fluorescence polarisation competition",,added: FITC-ATRIP probe,Kd,20 ± 3.5 µM
O=C(O)c1cc(Nc2nnc(-c3ccccc3)c(=O)[nH]2)ccc1O,BTLA,"binding, microscale thermophoresis",,,Kd,3.21 µM
CC(=O)N[C@H]1[C@@H](O[C@H](C)[C@H](N)C(=O)O)O[C@H](CO)[C@H](O)[C@@H]1O,"CLEC10A, carbohydrate recognition domain (Homo sapiens, UniProt Q8IUN9)","binding, ITC",,293 K,Kd,3 µM
Nc1ncnc2c1ccn2[C@@H]1O[C@H](COc2ccc3cc(Br)cnc3c2)[C@@H](O)[C@H]1O,"Protein arginine N-methyltransferase 5, with MEP50 (PRMT5, Homo sapiens, UniProt O14744)","binding, surface plasmon resonance",,,Kd,0.00328 µM
CCCCCCCCCCCCCCCCCC(=O)O[C@@H](CN=[N+]=[N-])[C@H](COP(=O)(O)O)OC(=O)CCCCCCCCCCCCCCCCC,"Protein kinase C alpha type, C2 domain (PRKCA, Homo sapiens, UniProt P17252)","PKCα C2 domain binding, surface plasmon resonance",POPC:POPE:PA 40:40:20 vesicles,"pH 7.4, 25 °C, 20 mol% PA, added: 1 mM CaCl2",Kd,0.64 ± 0.14 µM
Cc1cc(NC(=O)c2ccc(C)c(S(=O)(=O)Nc3ccc(Br)cc3)c2)c(C(=O)O)cc1C,RPA1 N-terminal domain,"binding, fluorescence polarisation competition",,added: FITC-ATRIP probe,Kd,> 250 µM
CCN(CC)CCn1c(=S)[nH]c2cc(C(=O)NCCc3ccc(S(N)(=O)=O)cc3)ccc2c1=O,"CD27 antigen (CD27, Homo sapiens, UniProt P26842)","binding, microscale thermophoresis",,,Kd,11.4 µM
Cc1ccc(NS(=O)(=O)c2cc(C(=O)Nc3ccccc3C(=O)O)ccc2C)cc1C,RPA1 N-terminal domain,"binding, fluorescence polarisation competition",,added: FITC-ATRIP probe,Kd,150 ± 11 µM
Cc1cc(NC(=O)Nc2ccc3nc(N4CCOCC4)cc(C)c3c2)ccc1Br,"Cyclin-dependent kinase 8, with cyclin C (CDK8, Homo sapiens, UniProt P49336)","binding, reporter displacement",,,Kd,11.4 µM
C[C@@H]1NCCN([C@@H](C)C(=O)N2CCN([C@@H](C)C(N)=O)C(=O)[C@@H]2C)C1=O,"Histone acetyltransferase p300, CH1 domain (EP300, Homo sapiens, UniProt Q09472)",intrinsic tryptophan fluorescence,,,Kd,> 10 µM
O=C(Cc1n[nH]c(=O)c2ccccc12)N1CCCC(c2nc(-c3cccnc3)no2)C1 (centres unmarked),BTLA,"binding, microscale thermophoresis",,,Kd,7.19 µM
CN1C(=CC=CC=CC2=[N+](CCCCCC(=O)NCc3cn(CCNC(=O)c4ccc(S[C@@H]5O[C@H](CO)[C@H](O)[C@H](O)[C@H]5O)cc4)nn3)c3ccc(S(=O)(=O)[O-])cc3C2(C)C)C(C)(C)c2cc(S(=O)(=O)O)ccc21,"lecA (Pseudomonas aeruginosa, UniProt Q05097)","binding, fluorescence polarization",,"16 h, single titration, added: fluorescent reporter ligand",Kd,3.84 µM and 3.95 µM and 4.56 µM
Cc1nc2c(C#N)cnn2c(C)c1CCC(=O)NC(C)c1cccc(OC(C)C)c1 (centres unmarked),Tumor necrosis factor receptor superfamily member 9,"binding, microscale thermophoresis",,,Kd,10.3 µM
CC(=O)Nc1ncc(CN2CC[C@H](Oc3cccc(F)n3)C[C@@H]2C)s1 [isotope labelled],"Protein O-GlcNAcase (OGA, Homo sapiens, UniProt O60502)",saturation binding,human striatum homogenate,radiolabelled compound,Kd,0.0016 ± 0.0004 µM
COc1ccccc1NC(=O)c1ccc(NC(=O)C(C)Sc2ccc(NC(C)=O)cc2)cc1 (centres unmarked),Hepatitis A virus cellular receptor 2,microscale thermophoresis,,,Kd,0.92 µM
Cc1ccc(N=Nc2ccc(N)nc2N)cc1C,"DNA repair protein REV1, C-terminal domain (Homo sapiens, UniProt Q9UBZ9)",microscale thermophoresis,,"cis-trans isomer mixture, added: labelled DNA repair protein REV1 20 nM",Kd,17 ± 1 µM

# A few entries again:
SMILES,target,test,test system,conditions,endpoint,value
Cc1ccc(C(=O)Nc2cccc(Cl)c2)cc1Nc1nc(-c2cccnc2)nc2c1cnn2C,EPHA2,Kinobeads competition pulldown,mixed cancer cell lysate,,Kd,0.129 µM
Cc1cccc(NS(=O)(=O)c2cc(C(=O)Nc3ccccc3C(=O)O)ccc2C)c1,RPA1 N-terminal domain,"binding, fluorescence polarisation competition",,added: FITC-ATRIP probe,Kd,165 ± 34 µM
O=C(NCc1nc(-c2ccncc2)no1)c1cc2c(cn1)OCCC2,CD28,microscale thermophoresis,,2% DMSO,Kd,24.3 ± 11.8 µM
O[C@@H]1[C@H](O)[C@@H]2C[C@@H]2[C@H]1n1cnc2c(NCc3cccc([125I])c3)nc(Cl)nc21,"Adenosine receptor A3 (Oryctolagus cuniculus, UniProt O02667)","binding, saturation binding",HEK293 cell membranes,"2 h, room temperature",Kd,0.00253 ± 0.00011 µM
Cc1ccc(C(=O)Nc2ccccc2C(=O)O)cc1S(=O)(=O)NCc1ccccc1,RPA1 N-terminal domain,"binding, fluorescence polarisation competition",,added: FITC-ATRIP probe,Kd,> 250 µM
